{"data": "Measured values pooled from the literature", "note": "Each line is one published result; not all experiments were run side by side. “And” joins repeats or separate records; there may be more than shown. ± marks the error that the study gave.", "UniProt P51813, sequence (whole entry, looked up)": "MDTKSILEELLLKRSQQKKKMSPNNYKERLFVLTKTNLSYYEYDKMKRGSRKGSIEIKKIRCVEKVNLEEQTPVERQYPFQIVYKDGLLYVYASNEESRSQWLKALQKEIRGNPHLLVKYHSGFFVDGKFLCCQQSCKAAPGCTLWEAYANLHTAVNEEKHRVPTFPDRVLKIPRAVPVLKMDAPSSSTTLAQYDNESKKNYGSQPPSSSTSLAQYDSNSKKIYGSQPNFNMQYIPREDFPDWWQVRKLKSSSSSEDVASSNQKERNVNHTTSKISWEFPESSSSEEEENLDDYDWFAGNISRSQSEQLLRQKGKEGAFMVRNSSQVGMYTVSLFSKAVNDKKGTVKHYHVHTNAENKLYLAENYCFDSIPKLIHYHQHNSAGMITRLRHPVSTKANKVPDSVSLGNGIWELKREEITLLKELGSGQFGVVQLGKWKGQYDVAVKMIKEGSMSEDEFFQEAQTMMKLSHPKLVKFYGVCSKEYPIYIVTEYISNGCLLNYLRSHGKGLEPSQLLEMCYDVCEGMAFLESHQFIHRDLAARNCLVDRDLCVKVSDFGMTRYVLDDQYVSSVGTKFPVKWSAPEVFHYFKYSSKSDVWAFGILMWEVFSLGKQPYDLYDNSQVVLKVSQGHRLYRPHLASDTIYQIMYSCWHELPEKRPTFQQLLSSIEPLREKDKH", "UniProt Q86XP1, sequence (whole entry, looked up)": "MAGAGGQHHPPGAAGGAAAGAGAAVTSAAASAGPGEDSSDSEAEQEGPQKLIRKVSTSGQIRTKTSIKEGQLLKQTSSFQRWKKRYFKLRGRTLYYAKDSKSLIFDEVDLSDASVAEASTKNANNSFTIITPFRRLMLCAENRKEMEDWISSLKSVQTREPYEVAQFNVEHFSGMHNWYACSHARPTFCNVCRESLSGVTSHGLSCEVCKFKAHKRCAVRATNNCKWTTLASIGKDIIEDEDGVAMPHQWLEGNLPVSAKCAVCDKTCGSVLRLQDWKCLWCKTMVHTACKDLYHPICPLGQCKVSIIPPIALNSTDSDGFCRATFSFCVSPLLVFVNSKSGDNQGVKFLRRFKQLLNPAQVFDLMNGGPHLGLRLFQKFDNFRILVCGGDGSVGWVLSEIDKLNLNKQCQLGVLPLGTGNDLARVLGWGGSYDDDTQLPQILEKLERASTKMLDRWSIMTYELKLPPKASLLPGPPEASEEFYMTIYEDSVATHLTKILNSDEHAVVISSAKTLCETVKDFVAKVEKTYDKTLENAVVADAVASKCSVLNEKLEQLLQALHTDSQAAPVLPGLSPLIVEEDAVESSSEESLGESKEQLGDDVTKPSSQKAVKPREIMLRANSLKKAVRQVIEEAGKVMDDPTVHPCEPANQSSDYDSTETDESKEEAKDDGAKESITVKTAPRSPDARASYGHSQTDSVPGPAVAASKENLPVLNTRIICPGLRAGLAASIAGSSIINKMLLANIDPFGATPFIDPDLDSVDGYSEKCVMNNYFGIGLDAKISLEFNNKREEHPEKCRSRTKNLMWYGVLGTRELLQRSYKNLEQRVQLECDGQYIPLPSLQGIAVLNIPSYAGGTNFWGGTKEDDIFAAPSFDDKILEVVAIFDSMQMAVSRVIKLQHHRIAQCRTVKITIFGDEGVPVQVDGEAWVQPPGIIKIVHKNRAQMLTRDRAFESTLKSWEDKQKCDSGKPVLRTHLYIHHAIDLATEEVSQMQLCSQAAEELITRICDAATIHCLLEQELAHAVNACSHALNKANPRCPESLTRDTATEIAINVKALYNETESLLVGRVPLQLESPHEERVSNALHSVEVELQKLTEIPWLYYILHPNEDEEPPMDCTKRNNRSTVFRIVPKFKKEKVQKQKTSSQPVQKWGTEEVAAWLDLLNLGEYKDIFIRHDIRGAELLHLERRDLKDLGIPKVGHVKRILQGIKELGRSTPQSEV", "UniProt Q7KZI7, sequence (whole entry, looked up)": "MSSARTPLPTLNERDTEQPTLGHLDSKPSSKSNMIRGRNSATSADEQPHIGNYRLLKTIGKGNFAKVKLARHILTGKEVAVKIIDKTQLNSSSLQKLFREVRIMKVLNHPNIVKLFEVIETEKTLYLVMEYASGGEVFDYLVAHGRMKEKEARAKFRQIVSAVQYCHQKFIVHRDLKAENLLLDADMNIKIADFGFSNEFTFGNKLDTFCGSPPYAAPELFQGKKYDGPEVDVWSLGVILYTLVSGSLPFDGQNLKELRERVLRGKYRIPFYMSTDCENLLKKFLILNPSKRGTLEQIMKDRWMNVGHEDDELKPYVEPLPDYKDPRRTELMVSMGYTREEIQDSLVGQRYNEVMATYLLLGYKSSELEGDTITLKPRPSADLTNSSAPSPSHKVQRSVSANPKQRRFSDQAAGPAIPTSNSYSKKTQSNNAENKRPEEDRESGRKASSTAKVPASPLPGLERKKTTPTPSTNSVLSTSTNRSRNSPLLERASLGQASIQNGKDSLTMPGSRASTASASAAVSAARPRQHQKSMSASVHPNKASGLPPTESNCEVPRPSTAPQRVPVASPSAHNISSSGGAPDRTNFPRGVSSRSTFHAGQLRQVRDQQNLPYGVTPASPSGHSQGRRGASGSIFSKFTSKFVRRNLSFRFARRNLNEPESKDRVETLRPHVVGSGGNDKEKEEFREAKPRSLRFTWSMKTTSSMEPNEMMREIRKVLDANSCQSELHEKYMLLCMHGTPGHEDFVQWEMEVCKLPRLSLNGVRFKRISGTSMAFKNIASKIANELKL"}
{"SMILES": "CC(C)N1CCCCC1C(=O)NC(Cc1ccc(-c2ccccc2)cc1)B(O)O (stereo not drawn)", "test system": "male Sprague-Dawley rats, plasma", "setting": "oral, 1 mg/kg, 24 h, citrate ester", "endpoint": "AUC(0-t)", "value": "1.64 µM·h"}
{"SMILES": "CC(C)Oc1c(NC(=O)c2ccc(NC(=O)[C@H](CC(N)=O)NC(=O)c3ccc(/N=N/c4ccccc4)cc3)cc2)ccc(C(=O)Nc2ccc(C(=O)O)cc2)c1O", "assay": "absorbance kinetics", "setting": "35 °C, photostationary to ground state", "endpoint": "thermal relaxation half-life", "value": "19.3 h"}
{"SMILES": "CC[C@H](C)[C@H](NC(=O)[C@H](Cc1c[nH]cn1)NC(=O)[C@H](CCCCN)NC(=O)[C@H](C)NC(=O)[C@H](C)NC(=O)[C@H](Cc1c[nH]cn1)NC(=O)[C@H](CCCNC(=N)N)NC(=O)CNC(=O)[C@H](Cc1c[nH]cn1)NC(=O)[C@H](CCCCN)NC(=O)[C@H](Cc1ccccc1)NC(=O)[C@@H](NC(=O)[C@H](CO)NC(=O)CNC(=O)[C@H](Cc1c[nH]c2ccccc12)NC(=O)CN)[C@@H](C)CC)C(=O)NCC(=O)N[C@@H](Cc1c[nH]cn1)C(=O)N[C@@H](C)C(=O)N[C@@H](C)C(=O)N[C@H](C(=O)N[C@@H](CC(N)=O)C(=O)N[C@@H](Cc1c[nH]cn1)C(=O)N[C@@H](Cc1ccc(O)cc1)C(=O)N[C@@H](CC(C)C)C(N)=O)C(C)C", "test system": "zebrafish embryos 28 hpf, E3 medium", "setting": "24 h", "endpoint": "chronic toxic concentration", "value": "25 µM"}
{"SMILES": "COc1cnc2cccc(N3CCc4c(cc(Cn5ccnc5)cc4-c4cn(C)nc4C(F)(F)F)C3=O)c2c1", "test system": "BALB/c nude mice, MV4-11 xenograft", "setting": "intraperitoneal, 75 mg/kg, day 21", "endpoint": "body weight", "value": "22.8 g and 22.4 g and 23.5 g and 21.7 g"}
{"SMILES": "CCCCCCCCCCCC(=O)N[C@@H](CCCNC(=N)N)C(=O)N[C@@H](Cc1c[nH]c2ccccc12)C(=O)N[C@@H](CCCCN)C(=O)N[C@H](C(=O)N[C@@H](Cc1ccccc1)C(=O)N[C@@H](CCCCN)C(=O)N[C@@H](CCCCN)C(=O)N[C@H](C(=O)N[C@@H](CCC(=O)O)C(=O)N[C@@H](CCCCN)C(=O)N[C@H](C(=O)NCC(=O)N[C@@H](CCC(N)=O)C(=O)N[C@@H](CC(N)=O)C(=O)N[C@H](C(=O)N[C@@H](CCCNC(=N)N)C(=O)N[C@@H](CC(=O)O)C(=O)NCC(=O)N[C@H](C(=O)N[C@H](C(=O)N[C@@H](CCCCN)C(=O)N[C@@H](C)C(=O)NCC(=O)N1CCC[C@H]1C(=O)N[C@@H](C)C(=O)N[C@H](C(=O)N[C@@H](C)C(=O)N[C@H](C(=O)N[C@H](C(=O)NCC(=O)N[C@@H](CCC(N)=O)C(=O)N[C@@H](C)C(=O)N[C@@H](C)C(=O)N[C@H](C(=O)N[C@H](C(N)=O)[C@@H](C)CC)[C@@H](C)O)C(C)C)C(C)C)C(C)C)C(C)C)[C@@H](C)CC)[C@@H](C)CC)C(C)C)[C@@H](C)CC)[C@@H](C)CC", "assay": "CD spectroscopy", "test system": "50% TFE in water", "setting": "room temperature", "endpoint": "helical content", "value": "42.7%"}
{"SMILES": "O=C1NC(=O)c2c1c1cc(F)c[n+]3c1c1c2c2cc(O)ccc2[n]1[Ru-4]312([N]=C=S)[S+]3CC[S+]1CC[S+]2CC3 (stereo not drawn)", "tested on": "BMX (Homo sapiens, UniProt P51813)", "assay": "enzyme activity", "setting": "100 nM, human enzyme, with: 10 µM ATP", "how to read": "relative to: untreated", "endpoint": "remaining activity", "value": "107%"}
{"SMILES": "CC[C@H](C)[C@H](NC(=O)[C@H](CCCCN)NC(=O)CNC(=O)[C@H](CC(C)C)NC(=O)[C@H](Cc1ccccc1)NC(=O)[C@H](CCCCN)NC(=O)[C@H](CO)NC(=O)[C@H](Cc1ccccc1)NC(=O)[C@H](Cc1c[nH]c2ccccc12)NC(=O)[C@H](CCC(N)=O)NC(=O)[C@@H](NC(=O)[C@H](Cc1ccccc1)NC(=O)CCCCCNC(=O)CN1CCN(CC(=O)O)CCN(CC(=O)O)CCN(CC(=O)O)CC1)C(C)C)C(=O)N[C@@H](CCC(=O)O)C(=O)N1CCC[C@H]1C(=O)N[C@@H](CC(=O)O)C(=O)N[C@H](C(=O)N[C@@H](CO)C(=O)N[C@@H](CCC(N)=O)C(=O)N[C@H](C(=O)N[C@@H](CCC(N)=O)C(=O)N[C@@H](CC(=O)O)C(=O)N1CCC[C@H]1C(=O)N[C@@H](CC(N)=O)C(=O)N[C@@H](CC(=O)O)C(=O)N[C@@H](CCC(N)=O)C(=O)N[C@@H](Cc1ccc(O)cc1)C(=O)N[C@@H](CCC(=O)O)C(=O)N1CCC[C@H]1C(=O)N[C@@H](Cc1ccccc1)C(=O)O)C(C)C)C(C)C [copper-64 labelled]", "assay": "dynamic PET", "test system": "mouse, CT26 tumour, untreated, tumour", "setting": "intravenous, 100 µCi/mouse, 2340 s", "endpoint": "SUVmean", "value": "1.11 SUV"}
{"SMILES": "CSCC[C@H](N)C(=O)N[C@@H](C)C(=O)N[C@@H](CCCNC(=N)N)C(=O)N[C@@H](CCCNC(=N)N)C(=O)N[C@@H](CC(=O)O)C(=O)N[C@@H](CCCCN)C(=O)N[C@H](C(=O)N[C@@H](CC(=O)O)C(=O)N[C@@H](Cc1ccccc1)C(=O)N[C@@H](C)C(=O)N[C@@H](CCCNC(=N)N)C(=O)N[C@@H](CCCNC(=N)N)C(=O)N[C@@H](CCCNC(=N)N)C(=O)N[C@@H](CCCNC(=N)N)C(=O)NCCCCCC(=O)NCCCCC(NC(=O)CCCCCNC(=O)[C@H](CCCNC(=N)N)NC(=O)[C@H](CCCNC(=N)N)NC(=O)[C@H](CCCNC(=N)N)NC(=O)[C@H](CCCNC(=N)N)NC(=O)[C@H](C)NC(=O)[C@H](Cc1ccccc1)NC(=O)[C@H](CC(=O)O)NC(=O)[C@@H](NC(=O)[C@H](CCCCN)NC(=O)[C@H](CC(=O)O)NC(=O)[C@H](CCCNC(=N)N)NC(=O)[C@H](CCCNC(=N)N)NC(=O)[C@H](C)NC(=O)[C@@H](N)CCSC)[C@@H](C)O)C(=O)NCCCCC(NC(=O)C(CCCCNC(=O)CCCCCNC(=O)[C@H](CCCNC(=N)N)NC(=O)[C@H](CCCNC(=N)N)NC(=O)[C@H](CCCNC(=N)N)NC(=O)[C@H](CCCNC(=N)N)NC(=O)[C@H](C)NC(=O)[C@H](Cc1ccccc1)NC(=O)[C@H](CC(=O)O)NC(=O)[C@@H](NC(=O)[C@H](CCCCN)NC(=O)[C@H](CC(=O)O)NC(=O)[C@H](CCCNC(=N)N)NC(=O)[C@H](CCCNC(=N)N)NC(=O)[C@H](C)NC(=O)[C@@H](N)CCSC)[C@@H](C)O)NC(=O)CCCCCNC(=O)[C@H](CCCNC(=N)N)NC(=O)[C@H](CCCNC(=N)N)NC(=O)[C@H](CCCNC(=N)N)NC(=O)[C@H](CCCNC(=N)N)NC(=O)[C@H](C)NC(=O)[C@H](Cc1ccccc1)NC(=O)[C@H](CC(=O)O)NC(=O)[C@@H](NC(=O)[C@H](CCCCN)NC(=O)[C@H](CC(=O)O)NC(=O)[C@H](CCCNC(=N)N)NC(=O)[C@H](CCCNC(=N)N)NC(=O)[C@H](C)NC(=O)[C@@H](N)CCSC)[C@@H](C)O)C(N)=O)[C@@H](C)O (stereo partly drawn)", "test system": "C57BL/6 mouse female, thymus", "setting": "dose not given, 6 h", "how to read": "relative to: total", "endpoint": "tissue distribution", "value": "0.85% and 0.89% and 1.24%"}
{"SMILES": "COC(=O)[C@H]1[C@@H](c2ccc(Cl)c(Cl)c2)C[C@@H]2CC[C@H]1N2Cc1c2ccccc2c(Cl)c2ccccc12", "assay": "fluorometric titration", "setting": "1 µM, 10% DMSO", "endpoint": "pKa", "value": 3.7}
{"SMILES": "CC(C)[C@@H]1NC(=O)CNC(=O)[C@H](CC(N)=O)NC(=O)[C@H](CCCNC(=N)N)NC(=O)[C@H](Cc2ccc(O)cc2)NC(=O)[C@H](C(C)C)NC(=O)[C@@H](NC(=O)[C@@H](NC(=O)[C@H](CC(N)=O)NC(=O)[C@H](Cc2c[nH]c3ccccc23)NC(=O)[C@H](C)NC(=O)[C@H](Cc2ccccc2)NC(=O)CNC(=O)[C@H](CCCCN)NC(=O)[C@H](Cc2ccccc2)NC(=O)[C@H](Cc2ccccc2)NC(=O)[C@H](CCCCN)NC(=O)OCC2c3ccccc3-c3ccccc32)C(C)C)CSSC[C@@H](C(=O)N[C@@H](Cc2c[nH]cn2)C(=O)N[C@@H](CCCNC(=N)N)C(=O)N[C@@H](CCCNC(=N)N)C(=O)N[C@@H](C)C(=O)N[C@@H](CC(N)=O)C(N)=O)NC(=O)[C@H](C(C)C)NC(=O)[C@H](CCCNC(=N)N)NC1=O", "test system": "ICR mice, blood", "setting": "intraductal mammary, 5 mg/kg, day 5", "endpoint": "neutrophils", "value": "18.7 ± 0.98%"}
{"SMILES": "N=C(N)NCCC[C@@H](NC(=O)[C@H](N)Cc1c[nH]c2ccccc12)C(=O)N[C@H](CCCCN)C(=O)N[C@H](Cc1c[nH]c2ccccc12)C(=O)N[C@H](CCCNC(=N)N)C(=O)N[C@H](CCCCN)C(=O)N[C@H](Cc1c[nH]c2ccccc12)C(=O)N[C@H](CCCNC(=N)N)C(=O)N[C@H](CCCCN)C(=O)N[C@H](Cc1c[nH]c2ccccc12)C(=O)N[C@H](CCCNC(=N)N)C(=O)N[C@H](CCCCN)C(N)=O", "test system": "mouse", "setting": "intraperitoneal, 20 mg/kg single dose, day 5", "endpoint": "survival", "value": "100%"}
{"SMILES": "COc1ccccc1-c1n[nH]c2nc(NC3CCN(C(=O)Cc4ccc(F)cc4F)CC3)ncc12", "assay": "bead binding, competition bead pull-down, measured: LMJF.36.3530", "test system": "Leishmania donovani extract", "setting": "10 µM", "how to read": "relative to: vehicle", "endpoint": "relative abundance", "value": 0.93}
{"SMILES": "CN(C)[C@H]1C[C@@]23CC[C@@]4(O2)C(=CC[C@]2(C)[C@@H](c5ccc6ccncc6c5)CC[C@H]24)C=C3[C@@H](O)[C@@H]1O", "tested on": "Diacylglycerol kinase eta (DGKH, Homo sapiens, UniProt Q86XP1)", "assay": "ATP probe labelling, inhibitor, KiNativ profiling", "setting": "1 µM", "endpoint": "inhibition", "value": "-8.6%"}
{"SMILES": "CSCC[C@H](NC(=O)CNC(=O)[C@H](CCCCN)NC(=O)[C@H](CC(C)C)NC(=O)[C@@H]1CCCN1C(=O)[C@H](CO)NC(=O)[C@H](Cc1c[nH]cn1)NC(=O)[C@H](Cc1c[nH]c2ccccc12)NC(=O)[C@H](CCCNC(=N)N)NC(=O)[C@H](CC(C)C)NC(=O)[C@H](CCCNC(=N)N)NC(=O)[C@H](Cc1c[nH]c2ccccc12)NC(=O)[C@H](CS)NC(=O)CCCCCNC(=O)CN1CCN(CC(=O)O)CCN(CC(=O)O)CCN(CC(=O)O)CC1)C(=O)O [copper-64 labelled]", "test system": "BALB/c nude mouse, Huh-7 tumour, tumour and muscle", "setting": "intravenous, 1.85 MBq, 1 h, ex vivo biodistribution", "how to read": "relative to: tumour over muscle", "endpoint": "tumour-to-muscle ratio", "value": 6.45}
{"SMILES": "CN1Cc2cc(Cl)ccc2-n2c(nnc2C2CCN(c3cccc(F)n3)CC2)C1", "test system": "male Sprague-Dawley rat, brain", "setting": "intravenous, 0.03 mg/kg", "endpoint": "AUC", "value": "3.82 ng·h/mL"}
{"SMILES": "CS(C)(=O)=Nc1ccc(-c2ccc(-c3nc4cc(O[C@@H]5CO[C@H]6[C@@H]5OC[C@H]6O)[nH]c4cc3F)cc2)cc1", "tested on": "MARK2 (Homo sapiens, UniProt Q7KZI7)", "assay": "enzyme activity, inhibitor", "setting": "10 µM", "endpoint": "inhibition", "value": "5%"}
{"SMILES": "O=C1NC2(CC2)COc2ncc(F)cc2[C@H]2COCCN2c2ccn3ncc1c3n2", "test system": "Sprague-Dawley rat, female, adrenals", "setting": "oral, 5 mg/kg/day, 4 weeks, end of treatment", "endpoint": "organ-to-brain weight ratio", "value": "3.9 ± 0.42%"}
{"SMILES": "Cc1sc2c(c1C)C(c1ccc(-c3cccc(NC(=O)c4cnn5cccnc45)c3)cc1)=N[C@@H](CC(N)=O)c1nnc(C)n1-2", "assay": "body weight change", "test system": "NOD/SCID mice with MV4-11 xenografts", "setting": "5 and 10 mg/kg", "endpoint": "tolerability", "value": "not toxic"}
{"SMILES": "COc1ccc(C([O-])=CC(=O)c2ccc(C(C)(C)C)cc2)cc1.[Ru+2].c1ccc(-c2ccnc3c2ccc2c(-c4ccccc4)ccnc23)cc1.c1ccc(-c2ccnc3c2ccc2c(-c4ccccc4)ccnc23)cc1", "test system": "zebrafish larvae", "setting": "10 µM, 96 h, dark", "how to read": "relative to: normal", "endpoint": "viability", "value": "100%"}
{"SMILES": "CC(C)=CCC/C(C)=C\\CCn1cc(CC(C)(P(=O)(O)O)P(=O)(O)O)nn1", "test system": "mouse CD-1", "setting": "intravenous, 0.3 mg/kg, 8 h", "how to read": "relative to: dose", "endpoint": "biliary excretion", "value": "0.88%"}
{"SMILES": "C[C@@H](Oc1ccc2c(c1)[C@H]1CCN[C@@]1(C)CO2)c1ccccc1", "assay": "lipid PAMPA", "setting": "10 µM, 16 h, pH 7.4, 25 °C", "endpoint": "-log Pe", "value": 5.7}
